Assay results pooled from the literature.
Parts stem from different laboratories: compare values within a part only.

Block 1
Target: Sal-like protein 4, full length isoform B (SALL4, Homo sapiens, UniProt Q9UJQ4-2, residues 1-616)
Method: universal PBM
Molecule type: double-stranded DNA, one strand shown
Medium: in vitro
Tested at: not given
Setting: 8-mer, flanks averaged, mean of replicates
Direction: higher = stronger binding
For `GGCGGCCC`, the E-score was -0.407.
The E-score of `CGCGACAC` is reported as -0.251.
For `ATTGATTA`, the E-score was 0.324.
`CAGAACAA` gave an E-score of 0.174.
`CCCTATAA` has an E-score of 0.183.
For `TCGCACGA`, the E-score was -0.0728.
`ACAATCGC` has an E-score of -0.00231.
With `CCGGTCGC` the E-score was -0.312.
The E-score of `AGGAACAT` is reported as 0.176.
`GGCCCAAC` gave an E-score of -0.225.
For `ACTTTGAC`, the E-score was 0.0226.
With `GCCGGCAA` the E-score was -0.11.
For `CGCATAAC`, the E-score was 0.22.
With `ACCTGGCC` the E-score was -0.312.
For `GGGCTCGA`, the E-score was -0.233.
`GAATAGCA` has an E-score of 0.087.
With `CAGTTCAA` the E-score was -0.0474.
`AAACGCCC` gave an E-score of -0.0822.
For `CTGAAATA`, the E-score was 0.308.
`AAGGGACG` has an E-score of -0.261.
`ACTCGTTG` has an E-score of 0.102.
`CAACTTCA` has an E-score of 0.0148.
`GAGAAGAA` has an E-score of 0.0497.
`CTTATGAA` has an E-score of 0.252.
The E-score of `AACGGAAA` is reported as 0.0592.

Block 2
Target: RING finger protein unkempt homolog, zinc fingers 1-6, GST-SBP tag (UNK, Homo sapiens, UniProt Q9C0B0, residues 30-357)
Chain of UniProt Q9C0B0 (30-357, looked up): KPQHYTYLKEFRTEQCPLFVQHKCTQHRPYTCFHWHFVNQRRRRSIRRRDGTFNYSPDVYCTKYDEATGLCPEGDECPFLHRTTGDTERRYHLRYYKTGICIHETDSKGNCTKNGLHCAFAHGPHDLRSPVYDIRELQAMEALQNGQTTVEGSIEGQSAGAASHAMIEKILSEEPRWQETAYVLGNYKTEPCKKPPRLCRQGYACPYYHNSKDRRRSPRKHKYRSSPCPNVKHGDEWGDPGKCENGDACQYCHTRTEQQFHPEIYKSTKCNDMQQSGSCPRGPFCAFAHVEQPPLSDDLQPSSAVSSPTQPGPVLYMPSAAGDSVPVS
Method: RNA Bind-n-Seq
Molecule type: RNA
Medium: in vitro
Tested at: not given
Setting: RNA with constant flanks, human-mouse chimeric sites, ends assumed
Baseline: input RNA pool
Direction: higher = stronger binding
Shared flanks, not repeated: GGGAGUUCUACAGUCCGACGAUC … CAACAGAGGAUUGAGCAUCA
The bound/input enrichment of `UUUCUACUGCAGCAAACCAUGCUACGAAUUAAGGAUCCUAAGAAGUCCCUGGAUUUUUAUACGAGGGUUCUUGGACUGACCCUCCUGCAGAAGCUUGACUUCCCUGCUAUGAAGUUCUCG` is reported as 0.276 ratio.
`UUUGUAUUUAUGCUAAGCACACGUGCUGGUGGUCUGGGCAUCAAUCUUGCAACUGCUGAUGUAGUAAUUUUAUAUGACUCAGAUUGGAAUCCGCAAGUAGAUCUUCAGGCUAUGGACCGU` has a bound/input enrichment of 0.291 ratio.
`GAAUCCUCCCGUGCAAAAUUUUGCAACACCAAGCUCACAGCAGCAGCAUCUUAGUCACAGUAGGGUAGUUUUGGGGCUCUGUGGCCAGGGUUUUAUUCAUGUGCAGGUUUGGAAAAUGUA` gave a bound/input enrichment of 2.43 ratio.
`CUGUUUUGACAGCCACACAAUCUUGGCAUGUAUUAAGGAAAAAAAAAAUCCCUGUUCAAGUAGUUUUUCCACCUAUCAGCACUGAGUAAAUGCCAUAACUCCGCGGAAAUGGUCUAAAUA` gave a bound/input enrichment of 0.204 ratio.
For `GGAAGUACAAUGAUGGAGAUUGAUGGUGACAAAGGCAAGCAGGGCGGGCCCACCUACUACAUAGACACUAAUGCUCUCCGCGUGCCCAGGGAGAACAUGGAGGCCAUCUCACCACUCAAG`, the bound/input enrichment was 0.525 ratio.
With `GUCAACAGCUGCCUCAACCCCAUCCUCUAUGCUUUCUUGGAUGAGAACUUCAAGGCCUGCUUCCGCAAGUUCUGCUGUGCUUCUGCCCUGCGCCGGGACGUGCAGGUGUCUGACCGCGUG` the bound/input enrichment was 0.374 ratio.
`GUAUACGGUUAUCGAGGAAAGGACUGUAGAGCGAAUGUAUACCUGCUUCCGACCGGGGAGAUAGUUUAUUUUAUCGCCUCAGUGGUAGUACUAUUUAAUUAUGAGGAGAGGACUCAGCGA` gave a bound/input enrichment of 1.19 ratio.
`UCUUUAAAAAAAAAAUUACAGGAAAAUACAGUGCUUUCCCUCCCAUAGAUCCACGUUCAAGCUCAAAGAGCAAAGGCUCCGCAAACAGCUCAAACAUCUGAUGAAGAAAGAUUUCUGAGA` gave a bound/input enrichment of 0.937 ratio.
For `UUACCCGAGAACGAGGAUGAGCUGGAGAGCACCAACAGGCGCUACACCAAGAGGGACUGUAGCACUUUCCUCAGAACUAGUGAGACGGGCAUUGUGGACCAGGUCAUGGUCACUCUCAAC`, the bound/input enrichment was 0.28 ratio.
`UCAACUGACAACAUCAAAUACCAGCCUAAAGGGGGGCAGGUACAAAUUGUUACCAAGAAAAUAGACCUAAGCCAUGUGACAUCCAAAUGUGGCUCUCUAAAGAACAUCCGCCACAGGCCA` gave a bound/input enrichment of 0.567 ratio.
For `CUGGCACUCUAUCAGAUAUAUUAAUUUUUAAAUGUAGAUAAAAUUUCAAAAAUGAAUGGCUACUUUACACGUUUAACUAGGGUUUUACUAUAUAUGUGUACAUAUGUAUAUAUAUAUAUA`, the bound/input enrichment was 10.3 ratio.

Block 3
Target: RNA binding protein fox-1 homolog 2, RRM domain, GST-SBP tag (RBFOX2, Homo sapiens, UniProt O43251-10, residues 100-194)
Method: RNA Bind-n-Seq
Molecule type: RNA
Medium: in vitro
Tested at: 365 nM
Setting: natural RNA segment, single round, ends assumed
Baseline: no-protein control
Direction: higher = stronger binding
Shared flanks, not repeated: GGGAGUUCUACAGUCCGACGAUC … UGGAAUUCUCGGGUGCCAA
Residues (chain): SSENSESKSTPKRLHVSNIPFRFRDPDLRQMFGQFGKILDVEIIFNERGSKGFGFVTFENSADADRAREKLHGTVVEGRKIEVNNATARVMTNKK
`UGUACAUUAAGCCAAUAAACUGCUUUAAUGAAUAACAAACUAUGUAGUGUGUCCCUAUUAUAAAUGCAUUGGAGAAGUAUUUUUAUGAGACUCUUUACUCAGGUGCAUGG` — result for “RBNS enrichment (R)”: 6.8.
For `CUGUGUAGUGAGGGAUACUGAGGGCAGUCCUGUGGCUGAGGGGCACAGAUUGAACUGCUGAACUAGUUGGAGGUCUAGAUGAGGUGCUUUACGCAUCAGCUGCCUUAGAC`, “RBNS enrichment (R)” read 0.685.
`CUCCUCGGCCUUGAAGGCCCAAUGACAGGCCUUGCCUCAAGGCCUUUCCUUCUCAGAGCCUCCUGAACCCCUGGGUAGGGCCUCCCCAUGUACCCUGCCGACUGACUGAG`: “RBNS enrichment (R)” 0.391.
`UCUCUGCAUACACGAACCUAACCCAAAUUUGCUUUGGUGCCAGAAAAACUGAGCUAUGUUUGAACAAAGAUGUCGUGCAAACUGUACUGUGAACAACAGUUGGUUUAAAA` — result for “RBNS enrichment (R)”: 0.509.
Under “RBNS enrichment (R)”, `CAUAAGUAUAUACUUGAAAGUACAUCUGUAGCCUAUGAUUUGAGUCUCUUGAAGUUCUAGGAAGAGGCAAACUACAAACUACUAGGAUUCUGAUUUCAGAUGUAGUCAUU` is recorded as 0.592.
`AACCAGAAGGAAGGGAAGGAGUUUUUGAAAAACUACCAGAAGACGAAGUUUGACACCUAUAUCCCCAUGUUUUGUGACUACAUCCCGUAGUGUCCUGCCUAUUCCUUUCU`: “RBNS enrichment (R)” 0.332.
For `UCCACCUGCUGGGGCACCAUUCUUAGUAUACAGAGGUGGCCUUACACACAUCUUGCAUGGAUGGCAGCAUUGUUCUGAAGGGGUUUGCAGAAAAAAAAGAUUUUCUUUAC`, “RBNS enrichment (R)” read 5.98.
`UUGACAUUUGUUUGGUUAUAGUGCAAUAUAUUUUGUAUGCAAGCAGUUUCAAUAAAGUUUGAUCUUCCUCUGCUAAAUUGAUGUUGAUGCAAUCCUUACAAAUGAUUGCU`: “RBNS enrichment (R)” 0.321.
`GCCGCUGCCGGCCCCUCCUCAGACUCCGCCUUUGGGAGCACACCUGCUUUGCCUUGCUGCCUGUGCAAAUGUUGGACAAGCAGACACACUCACACUCGUCCCCAGCUUAG` — result for “RBNS enrichment (R)”: 0.431.
For `AUUGCCUUGCCUUUAUUACAUGUACAUUUUGAAUUCUGUGACCAGUGAUUUGGGUUUUAUUUUGUAUUUGCAGGGUUUGUCAUUAAUAAUUAAUGCCCCUCUCUUACAGA`, “RBNS enrichment (R)” read 0.572.
For `GCUGAUUUGAAAUUUAGAUUUUUUAAAUUAUGUACUGGGGACAGGUUUUUGUCGCUUUACAUUGCUUCCUAGUUUACAGCAUGAUGCAAAUGAUUUUCUAACUUAGUGUU`, “RBNS enrichment (R)” read 3.49.
`GUUACACCACUCCUUCGUCCUUACAGGAGAUGUAGGGAGAAGAAUCUGCAGGCUGCUUGUAGGACUGUUCACCAAGGGGGAUACCAGCAGCAAGAGAGUGCACCCGUUUA`: “RBNS enrichment (R)” 0.636.

Block 4
Target: Ras GTPase-activating protein-binding protein 1, C-terminal RGG region (G3BP1, Homo sapiens, UniProt Q13283)
Chain of UniProt Q13283 (whole entry, looked up): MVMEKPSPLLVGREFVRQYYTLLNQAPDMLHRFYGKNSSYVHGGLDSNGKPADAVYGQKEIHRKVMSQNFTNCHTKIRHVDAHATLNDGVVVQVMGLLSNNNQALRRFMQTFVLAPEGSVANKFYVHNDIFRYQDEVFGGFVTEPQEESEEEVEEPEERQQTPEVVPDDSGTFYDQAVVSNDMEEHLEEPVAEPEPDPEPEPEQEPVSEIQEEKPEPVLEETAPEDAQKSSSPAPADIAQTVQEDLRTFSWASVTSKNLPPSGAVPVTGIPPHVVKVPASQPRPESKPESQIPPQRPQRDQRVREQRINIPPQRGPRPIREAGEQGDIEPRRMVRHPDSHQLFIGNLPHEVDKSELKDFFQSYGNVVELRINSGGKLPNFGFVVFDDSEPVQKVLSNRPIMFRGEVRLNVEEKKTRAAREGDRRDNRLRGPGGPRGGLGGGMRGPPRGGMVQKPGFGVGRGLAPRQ
Method: RNA Bind-n-Seq
Molecule type: RNA
Medium: in vitro
Tested at: 1 µM
Setting: whole 134-nt RNA, ends assumed
Together with: 150 mM KCl
Baseline: input library
Direction: higher = stronger binding
Shared flanks, not repeated: GGGAGUUCUACAGUCCGACGAUC … UGGAAUUCUCGGGUGUCAAGG
`UUUUCUCACGAUGCACCUCCCCCUGGCACUAAGAAAAAGCACUUAUCCAUUGAGCAGCUGAAUGCUCGUCGCAGGAAAGUAUGGCUCAGC` has a log2 enrichment of -1.41.
With `UGGCCCUGGUGGCAUGCGGGGAGGAAGAGGUGGCCUCAUGGAUCGUGGUGGUCCCGGUGGAAUGUUCAGAGGUGGCCGUGCUGGAGACAG` the log2 enrichment was 1.98.
With `UCAAGUCCUGUGCUACACAUCGUAUGUACCGAAUCGGGAAAGGAAAGGAAAGGGGAAAGUAUUAUGUUACGCCGUUCGGAUCUGCACUUC` the log2 enrichment was -1.56.
For `CCUCAAGUCCUGUGCUACACAUCGUAUGUACCGAAUCGGAAGGGGAAGGAAGGAAAGUAUUAUGUUACGCCGUUCGGAUCUGCACUUCCA`, the log2 enrichment was -1.4.
`CUGUGCUACACAUCGUAUGUACCGAAUCGGGGAAAAAGGGGUUUUUUUGGGGAAAAAGGGGAAAGUAUUAUGUUACGCCGUUCGGAUCUG` gave a log2 enrichment of -0.118.
For `UCCUGUGCUACACAUCGUAUGUACCGAAUCAAAUUUUUAAAUUUUUUUAAACCCCCAAAAAAGUAUUAUGUUACGCCGUUCGGAUCUGCA`, the log2 enrichment was -0.616.
`AAGUCCUGUGCUACACAUCGUAUGUACCGAAUCGGAAAAAGGAAAAAGGUUUUUGGAAAGUAUUAUGUUACGCCGUUCGGAUCUGCACUU` gave a log2 enrichment of -2.08.
`CUCAAGUCCUGUGCUACACAUCGUAUGUACCGAAUCGGAAGGGGAAGGGGAAGGAAAGUAUUAUGUUACGCCGUUCGGAUCUGCACUUCC` has a log2 enrichment of -1.12.
`UCCUGUGCUACACAUCGUAUGUACCGAAUCGGGGCCCCCCGGCCCCCCGGGCCCCCCGGAAAGUAUUAUGUUACGCCGUUCGGAUCUGCA` gave a log2 enrichment of -0.664.
`CUCAAGUCCUGUGCUACACAUCGUAUGUACCGAAUCGGGCCGGGCCGGCCGGGAAAGUAUUAUGUUACGCCGUUCGGAUCUGCACUUCCA` gave a log2 enrichment of -1.03.
`UAACUUUAGAGGAGGAUCUGAUGGAUAUGACAGUGGACGUGGAUUUGGGGAUGGCUAUAAUGGGUAUGGAGGAGGACCUGGAGGUGGCAA` gave a log2 enrichment of -1.56.
`UGGGAGGUGGAUUUUGUUUAUUUUUUUAGCUCAUUUCCAGGGGUGGGAAUUUUUUUUUAAUAUGUGUCAUGAAUAAAGUUGUUGUUGAAA` has a log2 enrichment of 3.11.
With `UCCUGUGCUACACAUCGUAUGUACCGAAUCGGCCCCCCCGGCCCCCCCGGGCCCCCCCGGAAAGUAUUAUGUUACGCCGUUCGGAUCUGC` the log2 enrichment was -0.588.
With `UGCUGAAGCUCACACCCGUGGACCACCCAGACUGCCUGCCGCUACAGGAUGCCCUCCGCAUCUCCCAGGACUUCUUUCCGGCAUCAGUGU` the log2 enrichment was -0.222.

A few entries again (block 1):
`ACAATCGC` has an E-score of -0.00231.
With `CCGGTCGC` the E-score was -0.312.
The E-score of `AGGAACAT` is reported as 0.176.
`GGCCCAAC` gave an E-score of -0.225.
For `ACTTTGAC`, the E-score was 0.0226.
With `GCCGGCAA` the E-score was -0.11.
For `CGCATAAC`, the E-score was 0.22.
With `ACCTGGCC` the E-score was -0.312.
